Measurements of several laboratories.
Compare with care: the assays were run in different laboratories.

For COc1ccc2c(c1O)-c1c(OC)c(OC)cc3c1[C@H](C2)N(C)CC3.Cl, the inhibition was -0.431% (Replicase polyprotein 1ab, main protease (rep, Severe acute respiratory syndrome coronavirus 2, UniProt P0DTD1); reporter gene (mKate2), inhibitor; 20 µM).
For `SELLTPLGI`, “frequency of responding donors” read 50 (AIM; peptide, CD8+ T cells from PBMC, human donors; HLA-B*40:01 restricted, unit not given; baseline: positive over tested donors).
CC[C@H](C)[C@H](NC(=O)[C@H](CC(C)C)NC(=O)[C@H](Cc1c[nH]c2ccccc12)NC(=O)[C@H](CCC(N)=O)NC(=O)[C@@H](NC(=O)[C@H](Cc1ccccc1)NC(=O)[C@H](C)NC(=O)[C@H](CCCCNC(=O)COCCOCCNC(=O)COCCOCCNC(=O)CC[C@H](NC(=O)CCCCCCCCCCCCCCCCCCC(=O)O)C(=O)O)NC(=O)[C@H](CCC(N)=O)NC(=O)[C@H](C)NC(=O)[C@@H](NC(=O)[C@H](CCCCN)NC(=O)[C@H](CC(=O)O)NC(=O)[C@H](CC(C)C)NC(=O)C(C)(C)NC(=O)[C@@H](NC(=O)[C@H](CO)NC(=O)[C@H](Cc1ccc(O)cc1)NC(=O)[C@H](CC(=O)O)NC(=O)[C@H](CO)NC(=O)[C@@H](NC(=O)[C@H](Cc1ccccc1)NC(=O)[C@@H](NC(=O)CNC(=O)[C@H](CCC(=O)O)NC(=O)C(C)(C)NC(=O)[C@@H](N)Cc1ccc(O)cc1)[C@@H](C)O)[C@@H](C)O)[C@@H](C)CC)[C@@H](C)CC)C(C)C)C(=O)N[C@@H](C)C(=O)NCC(=O)NCC(=O)N1CCC[C@H]1C(=O)N[C@@H](CO)C(=O)N[C@@H](CO)C(=O)NCC(=O)N[C@@H](C)C(=O)N1CCC[C@H]1C(=O)N1CCC[C@H]1C(=O)N1CCC[C@H]1C(=O)N[C@@H](CO)C(N)=O — result for “injection site reaction”: 0% (healthy human; 5.0 mg, single ascending dose).
Nc1ncnc2c([C@@H]3N[C@H](CO)[C@@H](O)[C@H]3O)c[nH]c12 has an antigen-positive cells of 56.7% (Zaire ebolavirus; antibody staining; human macrophages; 3.1 µM).
`LPIGINITRF`: “frequency of responding donors” 20 (AIM; peptide, CD8+ T cells from PBMC, human donors; HLA-B*07:02 restricted, unit not given; baseline: positive over tested donors).
